# Measured values gathered from unrelated publications.
# Compare with care: the assays were run in different laboratories. ± marks the error that the study gave.
Structure (SMILES),cell line,observed,technique,medium,time,setting,CC50
CCC(CC)COC(=O)[C@H](C)N[P@](=O)(OC[C@H]1O[C@@](C#N)(c2ccc3c(N)ncnn23)[C@H](O)[C@@H]1O)Oc1ccccc1,Vero (eGFP),,,,15 h,,> 100 µM
CCc1ccc(OCCc2cccc(F)c2)c(C(N)=O)c1,HepG2,,,galactose medium,3 (unit not given),,20 ± 1.5 µM
CC(C)(C)NCc1ccc(Nc2ccnc3cc(Cl)ccc23)cc1O,Huh-7-ACE2,,,,40 (unit not given),,> 2.5 µM
CCOC(=O)C1=C(CN2CCC[C@@H]2C(=O)Nc2cccc(B(O)O)c2)NC(c2nccs2)=N[C@H]1c1ccc(F)cc1Br,HepDES19,,MTS,,3 days,,29.8 µM
CN1CCCC(n2nc(Cc3ccc(Cl)cc3)c3ccccc3c2=O)CC1 (stereo not drawn),African green monkey cells,,,,5 days,,17.8 µM
CCC(CC)COC(=O)[C@H](C)N[P@](=O)(OC[C@H]1O[C@@](C#N)(c2ccc3c(N)ncnn23)[C@H](O)[C@@H]1O)Oc1ccccc1,Huh-7-ACE2,,,,40 (unit not given),,0.98 µM
OC(CCCN1CCc2c(c3cc(F)ccc3n2-c2ccc(F)cc2)C1)c1ccc(F)cc1 (stereo not drawn),African green monkey cells,,,,5 days,,6.92 µM
CNC(=O)c1cc(-c2ccoc2)ccc1OCCc1cccc(F)c1,HepG2,,,galactose medium,3 (unit not given),,> 100 µM
Cc1cccc(/C=N/Nc2cc(N3CCOCC3)nc(OCCc3ccccn3)n2)c1,Huh-7-ACE2,,,,40 (unit not given),,> 2.5 µM
CNC(=O)c1cc(C)ccc1OCCc1ccc(C2CC2)cc1,HepG2,,,galactose medium,3 (unit not given),,17 ± 5.6 µM
Nc1ccc2cc3ccc(N)cc3nc2c1,African green monkey cells,,,,5 days,,6.61 µM
O=C(NN1C(=O)C2C3C=CC(C4CC34)C2C1=O)c1ccc(C(F)(F)F)cc1 (stereo not drawn),African green monkey cells,,,,3 (unit not given),,> 106 µM
CNC(=O)[C@@]12C[C@@H]1[C@@H](n1cnc3c(NC)nc(C#Cc4ccc(Cl)s4)nc31)[C@H](O)[C@@H]2O,Vero 76,cytotoxicity,,,,,> 100 µM
CC(=O)c1cc(-c2ccsc2)ccc1OCCc1cccc(F)c1,HepG2,,,,3 (unit not given),glucose medium,> 100 µM
CC[C@H]1CN2CC[C@H]1C[C@@H]2[C@@H](O)c1ccnc2ccc(OC)cc12,African green monkey cells,,,,5 days,,> 25.1 µM
COc1cc2c(cc1N1C[C@@H](C)N[C@@H](C)C1)N(C(=O)c1ccc(-c3ccc(-c4noc(C)n4)cc3C)cc1)CC2,Huh-7-ACE2,,,,40 (unit not given),,1.5 µM
COc1cc2c3cc1Oc1cc(ccc1O)CC1c4c(cc(OC)c(O)c4Oc4ccc(cc4)CC3N(C)CC2)CCN1C (stereo not drawn),African green monkey cells,,,,5 days,,11.5 µM
CC(C)[C@H](NC(=O)c1ccccc1NC(=O)c1ccccn1)C(=O)N[C@H](CO)C(C)C,293T,,MTT,,24 h,,> 250 µM
Cc1cccc(C)c1NC(=O)CN1CCN(CCCC(c2ccc(F)cc2)c2ccc(F)cc2)CC1,African green monkey cells,,,,5 days,,8.41 µM
CCNC/C=C\CNCCCCNCCCCNC/C=C\CNCC,Huh-7-ACE2,,,,40 (unit not given),,> 2.5 µM
CC(C)C[C@@H]1NC(=O)[C@@H](NC(=O)OCc2ccccc2)Cc2cn(nn2)CCCNC(=O)CC[C@@H](C=O)NC1=O,HG23 norovirus replicon cells,,crystal violet staining,,48 h,,> 100 µM
CC(C)(O)c1ccc2c(c1)C(=CCCN1CCC(O)(c3ccc(Cl)cc3)C(C)(C)C1)c1cccnc1CO2 (stereo not drawn),Huh-7-ACE2,,,,40 (unit not given),,8.4 µM
COc1cc(/C=C/C(=O)CC(=O)/C=C/c2ccc(O)c(OC)c2)ccc1O,African green monkey cells,,,,5 days,,14.8 µM
CC(C)[C@H](NC(=O)c1ccccc1NC(=O)c1ccccc1)C(=O)N[C@H](CO)C(C)C,293T,,MTT,,24 h,,> 250 µM
C1=C(c2ccc(CN3CCCCC3)cc2)N2CCN=C2c2ccccc21,Huh-7-ACE2,,,,40 (unit not given),,5.8 µM
CC(=O)c1cc(-c2ccoc2)ccc1OCCc1cccc(F)c1,HepG2,,,galactose medium,3 (unit not given),,24 ± 6 µM
CC(C)CC(NC(=O)OCc1ccccc1)C(=O)NC(C(=O)NCC(=O)C=[N+]=[N-])C(C)C (stereo not drawn),Huh-7-ACE2,,,,40 (unit not given),,> 2.5 µM
Cc1cscc1-c1ccc(OCCc2cccc(F)c2)c(C(N)=O)c1,HepG2,,,,3 (unit not given),human,37 ± 7.5 µM
O=C(Nc1cc(F)c(F)c(F)c1)c1ccc(F)c(S(=O)(=O)NCc2cccc(B(O)O)c2)c1,HepDES19,,,,3 d,,19.4 ± 5 µM
Cc1ccc(OCCc2ccc(Br)cc2)c(C(N)=O)c1,HepG2,,,galactose medium,3 (unit not given),,10 ± 5.6 µM
CN(C(=O)CN(CCO)CC(=O)N(C)C(C)(C)Cc1ccccc1)C(C)(C)Cc1ccccc1,African green monkey cells,,,,5 days,,26.3 µM
CC(O)c1ccc(OCCc2cccc(F)c2)c(C(N)=O)c1 (stereo not drawn),HepG2,,,galactose medium,3 (unit not given),,> 100 µM
C=C(C)[C@]12C[C@@H](C)[C@@]34O[C@]5(CCCCCCC[C@H](C)[C@H]6[C@H](C)C(=O)[C@@](O)([C@H](O)[C@@]7(CO)O[C@H]7[C@H]3[C@H]1O5)[C@@H]64)O2,MT4,,CellTiter-Glo,,,,> 6.5 µM

# Excerpt of the above:
Structure (SMILES),cell line,observed,technique,medium,time,setting,CC50
CN1CCCC(n2nc(Cc3ccc(Cl)cc3)c3ccccc3c2=O)CC1 (stereo not drawn),African green monkey cells,,,,5 days,,17.8 µM
CCC(CC)COC(=O)[C@H](C)N[P@](=O)(OC[C@H]1O[C@@](C#N)(c2ccc3c(N)ncnn23)[C@H](O)[C@@H]1O)Oc1ccccc1,Huh-7-ACE2,,,,40 (unit not given),,0.98 µM
